Assay results of several laboratories.
Parts stem from different laboratories: compare values within a part only. Positions count from the first letter of the parent shown.

Set 1
Target: HLA class I histocompatibility antigen, A alpha chain, allele A*25:01 (Homo sapiens, UniProt P04439)
Read-out: peptide-MHC binding
Molecule type: peptide
Tested at: concentration not given
Sequence | binding
LEMNDAPTA | inactive
LSDLCNFLV | inactive
TPSHYSGNI | inactive
RDRFKRTSF | inactive

Set 2
Target: UBE2D3 UBC core domain (UniProt P61077)
Technique: yeast two-hybrid
Medium: yeast
Setting: mostly zero background
Baseline: not given
Direction: higher = stronger interaction
B1: PRKN RING domain (UniProt O60260); chain LIATNSRNITCITCTDVRSPVLVFQCNSRHVICLDCFHLYCVTRLNDRQFVHDPQLGYSLPCVAGCPNSLIKELHH
Residues (chain): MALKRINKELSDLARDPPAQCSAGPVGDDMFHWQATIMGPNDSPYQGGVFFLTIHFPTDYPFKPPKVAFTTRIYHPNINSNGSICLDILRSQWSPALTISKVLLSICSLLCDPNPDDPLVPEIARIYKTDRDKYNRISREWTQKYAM
Sequence | lacZ reporter activity
B1 (PRKN RING domain) | 0
ALDRLEKLLRCSRCTNILREPVCLGGCEHIFCSNCVSDCIGTGCPVCYTPAWIQDLKI (BARD1 RING domain (UniProt Q99728)) | 0
QLRRLQEERTCKVCLDRAVSIVFVPCGHLVCAECAPGLQLCPICRAPVRSRVRTF (BIRC7 RING domain (UniProt Q96CA5)) | 0

Set 3
Target: Protein C-ets-1 (ETS1, Homo sapiens, UniProt P14921, residues 1-441, K379A, full length assumed)
Technique: protein-binding microarray
Molecule type: double-stranded DNA, one strand shown
Medium: in vitro
Tested at: not given
Setting: k-mer, scored over probes, only values ≥0.25
Direction: higher = stronger binding
Residues (chain): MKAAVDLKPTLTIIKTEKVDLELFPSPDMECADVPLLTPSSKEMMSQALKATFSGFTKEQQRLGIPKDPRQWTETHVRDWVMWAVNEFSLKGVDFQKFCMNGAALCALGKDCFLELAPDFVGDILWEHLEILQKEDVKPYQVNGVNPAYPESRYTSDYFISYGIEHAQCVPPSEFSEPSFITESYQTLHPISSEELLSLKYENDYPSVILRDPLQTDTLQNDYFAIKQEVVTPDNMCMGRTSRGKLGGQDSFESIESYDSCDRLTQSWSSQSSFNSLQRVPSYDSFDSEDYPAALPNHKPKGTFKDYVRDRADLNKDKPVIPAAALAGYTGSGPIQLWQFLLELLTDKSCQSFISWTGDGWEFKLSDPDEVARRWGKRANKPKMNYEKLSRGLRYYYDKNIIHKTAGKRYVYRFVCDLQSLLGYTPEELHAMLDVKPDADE
Oligonucleotide | E-score
ACCCCACC | 0.285
GCGGGGTA | 0.288
CAATCAAC | 0.277
GGGGCGGA | 0.385
CACCGGTC | 0.361
CATATTAA | 0.288
CGGTACAG | 0.316
CGTAACAA | 0.265

Set 4
Target: ABI1, truncated, D143A, DHFR fusion (Arabidopsis thaliana)
Technique: DHFR PCA, deep sequencing
Medium: yeast
Setting: methotrexate growth selection, single substitutions
With: (+)-ABA 0.0091 µM
Baseline: wild-type fitted maximum
Direction: higher = stronger binding
Parent: PYL1, truncated, DHFR fusion (Arabidopsis thaliana); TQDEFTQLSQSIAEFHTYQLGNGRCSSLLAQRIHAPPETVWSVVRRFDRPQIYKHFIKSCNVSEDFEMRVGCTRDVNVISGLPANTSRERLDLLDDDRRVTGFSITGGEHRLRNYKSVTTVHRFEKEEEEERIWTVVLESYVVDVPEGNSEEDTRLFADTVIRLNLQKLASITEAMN; partner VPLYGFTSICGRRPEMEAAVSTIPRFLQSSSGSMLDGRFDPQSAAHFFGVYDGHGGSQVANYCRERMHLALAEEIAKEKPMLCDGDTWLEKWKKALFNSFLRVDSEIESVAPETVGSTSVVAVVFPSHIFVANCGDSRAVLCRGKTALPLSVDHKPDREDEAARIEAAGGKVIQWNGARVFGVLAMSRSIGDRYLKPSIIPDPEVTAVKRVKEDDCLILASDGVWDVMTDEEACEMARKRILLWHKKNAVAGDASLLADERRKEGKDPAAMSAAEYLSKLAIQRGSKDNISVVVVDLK
Change | relative binding score [%]
I162Q | 0.697
L166G | -1.94
P36K | 8.16
T73L | 9.63
A84S | 39.9
S27P | 4.6
L164G | -1.74
G148I | 1.76

Set 5
Target: CCNB2, cyclin fold, Cln2 fusion (human)
Technique: yeast growth competition, sequencing
Medium: yeast
Setting: strong parent motif
Baseline: not given
Direction: higher = stronger binding
Parent: viral docking peptide; TSVRRALFTGGSD; partner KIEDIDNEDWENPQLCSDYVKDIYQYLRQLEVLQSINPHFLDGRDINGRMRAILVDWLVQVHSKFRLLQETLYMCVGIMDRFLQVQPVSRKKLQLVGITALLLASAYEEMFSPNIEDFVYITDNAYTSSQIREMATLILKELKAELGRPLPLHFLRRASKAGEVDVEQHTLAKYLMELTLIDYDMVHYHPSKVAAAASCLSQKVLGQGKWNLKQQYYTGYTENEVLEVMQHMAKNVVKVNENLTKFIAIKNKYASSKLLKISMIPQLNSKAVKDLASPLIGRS
Change | normalised enrichment score
R4F | 0.185
R5D | -0.168
R4Y | 0.138
V3A | 0.45
S2A | 0.41
R5N | 0.0617
G11W | 0.812
A6T | 0.973
T9Q | 0.821
R4T | 0.05
R4Q | 0.168
G11F | 0.838
L7S | -0.43
R5Y | -0.159
A6H | 0.574
F8S | 0.56
R5P | -0.934
S12M | 0.728
